{"data": "Assay results collected from several papers", "note": "Each numbered part is a random draw from the data of one study; scales do not carry over between parts."}
{"data": "Set 1", "target": "TAR DNA-binding protein 43, full length, His tag (TARDBP, Homo sapiens, UniProt Q13148, residues 1-414)", "technique": "RNA Bind-n-Seq", "molecule type": "RNA", "medium": "in vitro", "concentration": "20 nM", "setting": "6-mer, flanks averaged, single round", "with": "150 mM LiCl", "reference": "input library", "reading": "higher = stronger binding"}
{"Oligonucleotide": "CAUUCC", "6-mer enrichment (R)": 0.872}
{"Oligonucleotide": "UGUCGA", "6-mer enrichment (R)": 0.972}
{"Oligonucleotide": "CUCGGG", "6-mer enrichment (R)": 0.908}
{"Oligonucleotide": "UUCCAG", "6-mer enrichment (R)": 0.924}
{"data": "Set 2", "target": "Transcriptional repressor CTCF (CTCF, Homo sapiens, UniProt P49711, residues 1-727, full length assumed)", "technique": "protein-binding microarray", "molecule type": "double-stranded DNA, one strand shown", "medium": "in vitro", "concentration": "not given", "setting": "k-mer, scored over probes, only values ≥0.25", "reading": "higher = stronger binding", "sequence of UniProt P49711 (whole entry, looked up)": "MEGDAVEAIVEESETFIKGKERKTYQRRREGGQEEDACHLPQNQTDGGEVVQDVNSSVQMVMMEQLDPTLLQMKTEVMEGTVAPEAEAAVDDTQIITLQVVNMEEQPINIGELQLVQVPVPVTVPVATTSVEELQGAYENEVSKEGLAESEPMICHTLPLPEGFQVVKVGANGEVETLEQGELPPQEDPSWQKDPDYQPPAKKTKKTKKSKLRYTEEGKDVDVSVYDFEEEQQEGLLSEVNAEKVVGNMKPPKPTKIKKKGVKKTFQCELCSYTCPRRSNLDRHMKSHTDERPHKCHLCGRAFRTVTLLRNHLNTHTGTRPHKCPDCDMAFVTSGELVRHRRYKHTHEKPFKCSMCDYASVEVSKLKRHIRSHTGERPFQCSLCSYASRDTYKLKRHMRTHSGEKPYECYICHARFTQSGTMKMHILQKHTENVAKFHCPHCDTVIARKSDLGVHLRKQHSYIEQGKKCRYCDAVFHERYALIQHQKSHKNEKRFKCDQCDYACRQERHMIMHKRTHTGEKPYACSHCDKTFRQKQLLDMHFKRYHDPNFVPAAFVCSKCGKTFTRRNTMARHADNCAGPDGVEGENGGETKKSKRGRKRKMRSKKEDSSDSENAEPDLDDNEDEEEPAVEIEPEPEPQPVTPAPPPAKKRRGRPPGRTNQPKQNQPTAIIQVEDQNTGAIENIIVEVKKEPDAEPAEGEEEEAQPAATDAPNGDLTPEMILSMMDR"}
{"Oligonucleotide": "CATACTTC", "E-score": 0.25}
{"Oligonucleotide": "GCTATACA", "E-score": 0.28}
{"Oligonucleotide": "GATTAACA", "E-score": 0.256}
{"data": "Set 3", "target": "Sal-like protein 4, full length isoform B (SALL4, Homo sapiens, UniProt Q9UJQ4-2, residues 1-616)", "technique": "universal PBM", "molecule type": "double-stranded DNA, one strand shown", "medium": "in vitro", "concentration": "not given", "setting": "8-mer, flanks averaged, mean of replicates", "reading": "higher = stronger binding"}
{"Oligonucleotide": "GTAGTTCA", "E-score": 0.0501}
{"Oligonucleotide": "CCAAGATA", "E-score": 0.136}
{"Oligonucleotide": "ATGCGGAA", "E-score": -0.0137}
{"Oligonucleotide": "GGTTGAAA", "E-score": 0.0634}
{"Oligonucleotide": "AGGCCCGG", "E-score": -0.353}
{"data": "Mixed results"}
{"Substance": "PhoQ, residues 284 288 289 292 302 303 NLCILV", "target": "PhoP, residues 12 14 15 18 19 NFCKL (Escherichia coli, UniProt P23836)", "test": "Sort-seq, item: YFP reporter", "test system": "E. coli", "setting": "PhoQ-PhoP variant library, with: 10 µM Mg2+", "scale": "reference: high Mg2+ state, higher = stronger signaling", "endpoint": "fold induction", "result": 7.79}
{"note": "Some of these lines once more (set 2):"}
{"Oligonucleotide": "CATACTTC", "E-score": 0.25}
